Measurements of several laboratories.
Each numbered part is a random draw from the data of one study; scales do not carry over between parts. Positions count from the first letter of the parent shown.

Sample 1
Target: Centromere-binding protein 1, full length, His-tagged (CBF1, Saccharomyces cerevisiae, UniProt P17106, residues 1-351)
Sequence of UniProt P17106 (whole entry, looked up): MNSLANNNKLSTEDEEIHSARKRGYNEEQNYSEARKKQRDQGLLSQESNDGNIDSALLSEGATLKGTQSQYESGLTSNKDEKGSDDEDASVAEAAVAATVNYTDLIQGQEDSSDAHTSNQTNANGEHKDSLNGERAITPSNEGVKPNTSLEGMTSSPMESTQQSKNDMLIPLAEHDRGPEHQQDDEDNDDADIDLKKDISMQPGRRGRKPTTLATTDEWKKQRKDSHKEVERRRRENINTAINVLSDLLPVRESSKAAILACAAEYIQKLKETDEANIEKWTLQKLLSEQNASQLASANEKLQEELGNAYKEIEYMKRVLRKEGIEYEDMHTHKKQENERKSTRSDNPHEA
Method: competition protein-binding microarray
Molecule type: double-stranded DNA, one strand shown
Medium: in vitro
Concentration: 2 µM
Setting: whole 60-bp probe, lowest competitor level
Together with: Pho4 competitor, 0.05 µM
Reading: higher = stronger binding
Endpoint: fluorescence intensity
All sequences stand within: … GTCTTGATTCGCTTGACGCTGCTG
TTGGCCTAGCCGGTTCGCGTGTGTTTGTCGCTTTTG: 74 a.u.
CCTGGCCAAGGGCTTCACGTGTAATCTCATTTAATT: 752 a.u.
GCAAAGGAGGGAAAGCACGGGCAGATAGCACCGTAC: 64.4 a.u.
CGCCGGCTGGCGCTTCCCGTGGAAGGGTGTTTGACT: 50.9 a.u.
CTTCTGTAAATTTGCACGGTGGGTGGACGCGCCCCG: 77.4 a.u.
GCACTACCATGTTTGCACGTGTTGGTGTCCTCATCA: 1460 a.u.
AAGGTATTGATAACCTGCGTGACGGTCTGGTGGAAT: 79.4 a.u.
AAAGCGGTAATTTATCACGTGTTTTCACATATCTAT: 4940 a.u.
CTGTATGTGTGGCGTCACAAATTAGGGGACTCTGGC: 83.3 a.u.
TGCGCAACAACTTGCGGTGTGGGTGTATGTCTAGAA: 67.5 a.u.
GCTAATGCCCATTTGCACGTTCTAATAATGAAGGTC: 230 a.u.
CATACCCAACCTTGGTAGGTGGGTGAAGATATTTGT: 57.6 a.u.
CATCAGCATGGTACCCTCGTGTTTTCTGCAGCGAGA: 107 a.u.
GTTTAGGATATCGGTATCGTGGGTAAAACTCAACCA: 74.4 a.u.
CTTCTGTAAATTTTTCACGTGAACTGACGCGCCCCG: 825 a.u.
AAATTACTAAGTTGTATTGTGGGTGACGCCGTATGA: 79.2 a.u.
ACCTGAAATGATTGACCTGTACAGAGGGTTACCTAT: 65 a.u.
GTACTGAGGTTAACACACGTTGTTGCGTACTCATCA: 97.1 a.u.
CTTTCCCGATCTTTTCACGTGGGCTTAGCACATTTG: 793 a.u.

Sample 2
Target: ABI1, truncated, D143A, DHFR fusion (Arabidopsis thaliana)
Method: DHFR PCA, deep sequencing
Medium: yeast
Setting: methotrexate growth selection, single substitutions
Together with: (+)-ABA 58 µM
Reference: wild-type fitted maximum
Reading: higher = stronger binding
Endpoint: relative binding score
Starting sequence: PYL1, truncated, DHFR fusion (Arabidopsis thaliana); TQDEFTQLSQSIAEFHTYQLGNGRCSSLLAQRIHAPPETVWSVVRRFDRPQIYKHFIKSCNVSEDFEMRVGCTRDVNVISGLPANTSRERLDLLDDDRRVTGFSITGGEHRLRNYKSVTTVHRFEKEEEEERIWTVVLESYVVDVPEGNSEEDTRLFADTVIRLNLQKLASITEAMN
E125R: 91.6%
D153P: -0.255%
R49S: 81.1%
N22W: 82.1%
I172T: 72.8%
R90E: 56.7%
L156V: 83.4%
M176W: 77.7%
D159R: 11.5%
N77L: 84%
R99Y: 102%
N61D: 82.8%
H110S: 34.1%
R132Q: 106%
E4A: 82.6%
D144A: 47.6%
E4I: 95.7%

Sample 3
Target: RNA binding protein fox-1 homolog 2, RRM domain, GST-SBP tag (RBFOX2, Homo sapiens, UniProt O43251-10, residues 100-194)
Method: RNA Bind-n-Seq
Molecule type: RNA
Medium: in vitro
Concentration: 365 nM
Setting: natural RNA segment, single round, ends assumed
Reference: no-protein control
Reading: higher = stronger binding
Endpoint: RBNS enrichment (R)
All sequences stand within: GGGAGUUCUACAGUCCGACGAUC … UGGAAUUCUCGGGUGCCAA
Residues (chain): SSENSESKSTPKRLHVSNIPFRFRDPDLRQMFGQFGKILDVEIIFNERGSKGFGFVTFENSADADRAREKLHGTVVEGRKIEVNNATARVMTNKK
CCUUUGCAGGAUGGAACUACGGGGCUUACAGGAGCUUUUGUGUGCCUGGUAGAAACUAUUUCUGUUCCAGUCACAUUGCCAUCACUCUUGUACUGCCUGCCACCGCGGAG: 0.218
UGUUGGUGAACAAAUGGCCUUUAUUAAGAAAUGGCUGGCUCAGGGUAAGGUCCGAUUCCUACCAGGAAGUGCUUGCUGCUUCUUUGAUUAUGACUGGUUUGGGGUGGGGG: 0.457
UUCUGUGUAAAACAAAUUCAUAGGAUCUGAUUUGCUCAGAGUAUUAUUCAAGAAUGUAUUAAUAAGGCAUUGCCCCCUGUUUGCACUCAGGGUUAAUAUGUCAAAUGAAA: 0.606
AGAGAGUCGGAGAUGAUGCAGCACACACACAAUUCCCCAGCCCAGUGAUGCUUGUGUUGACCAGAUGUUCCUGAGUCUGGAGCAAGCACCCAGGCCAGAAUAACAGAGCU: 0.998
UCAGCCUGUGUGCUACUGAACUGUCGAAGGAAAUAGCCGCUCUGAUAGGUAGAUGUGAGUAAAAAGAACAGGAAAAAAUUGCUUCUUUUAUUGGUUUCCAAAGAAACAAA: 1.2
ACCAAGAGGUGCUUUUUAAUAAAUGGAUAUUGAAGUUAGGGUGUUACUAAUUUGAUGUAUGGUUUCACAGUCUAGCAUACUGUCCUUUGACAUCUGCCUUUAAGACUUGG: 0.429
AUUUCUUCCUGCGGUUUAUUCUAUGUUUUAUAUAUUAUCUAAAUAUAUGUAUAUGCUGUGUCAUACUCAUAAUCUGGAAAUGAAUAAAGUGAUAUAUUCCUGGUUUGUAA: 0.553
AGGAGUCCCAGCCGGAUGGCCACCUCUGCAACCAUCAUCCUGUCUUCAGCUCAGCGGCAGCCCCGAAAUUGUUAAGGCCCGUACUUUUCCUGCCACUUGGUCUGACCCUG: 0.57

Sample 4
Target: Histone acetyltransferase KAT6A, winged helix 2, GST fusion (KAT6A, Homo sapiens, UniProt Q92794, residues 85-181)
Method: protein binding microarray
Molecule type: double-stranded DNA, one strand shown
Medium: in vitro
Concentration: not given
Setting: 8-mer, flanks averaged, mean of 2 arrays, mostly near background
Reference: not given
Reading: higher = stronger binding
Endpoint: E-score
Construct (chain): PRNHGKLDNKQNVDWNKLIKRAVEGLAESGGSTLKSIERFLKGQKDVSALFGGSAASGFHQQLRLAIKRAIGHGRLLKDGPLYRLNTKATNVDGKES
ATAACGAT: -0.261
AATAATCG: -0.0163
TATACTCA: 0.0184
AAGCGGCG: 0.164
AAAAATAC: -0.0842
AGGGGATA: -0.175
CATGTGTC: -0.158
TCGAGACA: 0.0459
ACAGGTTC: -0.0976
ACCATACC: -0.124
CGCGTTGA: -0.0459
ACGAAGGC: 0.102
ACCTCGTG: 0.0744
CGGATGGC: 0.197
CGATTCCG: -0.0869
GAACATTC: -0.127
AAGTCAAT: -0.14
ACACGTCA: -0.214
CAACTGCC: 0.0924

For quick reference, copied from above (sample 2):
D144A: 47.6%
D153P: -0.255%
N61D: 82.8%
H110S: 34.1%
E125R: 91.6%
